# Published values pooled from the literature.
# Each line is one published result; not all experiments were run side by side. “And” joins repeats or separate records; there may be more than shown. ± marks the error that the study gave.
# uncharacterized protein: uncharacterized protein (Spodoptera exigua, UniProt F1CEY0)
# ALB: Albumin (ALB, Homo sapiens, UniProt P02768)
SMILES,target or system,test,system,setting,scale,measurement,result
CC(C)C[C@H](NC(=O)C[C@H](O)[C@H](CC(C)C)NC(=O)[C@H](Cc1c[nH]cn1)NC(=O)CNC(=O)[C@@H](NC(=O)[C@H](C)NC(=O)[C@H](Cc1c[nH]c2ccccc12)NC(=O)[C@H](CCC(N)=O)NC(=O)[C@@H](Cc1ccccc1)NC(=O)COCCOCCNC(=O)CCC(C(=O)O)N1CCN(CC(=O)O)CCN(CC(=O)O)CCN(CC(=O)O)CC1)C(C)C)C(N)=O (some centres unmarked) [lutetium-177 labelled],,,"BALB/c nu/nu mice, female, blood","intravenous, 100 pmol, 30 min, time course 0.5 h, with: PA 300 µg",,tissue uptake,1.9 ± 0.7 %ID/g
CO[C@H]1O[C@H](COS(=O)(=O)O)[C@@H](O[C@@H]2O[C@@H](C(=O)O)[C@@H](O[C@H]3O[C@H](COS(=O)(=O)O)[C@@H](O[C@@H]4O[C@H](C(=O)O)[C@@H](O[C@H]5O[C@H](COS(=O)(=O)O)[C@@H](O)[C@H](O)[C@H]5NS(=O)(=O)O)[C@H](O)[C@H]4O)[C@H](OS(=O)(=O)O)[C@H]3NS(=O)(=O)O)[C@H](O)[C@H]2OS(=O)(=O)O)[C@H](O)[C@H]1NS(=O)(=O)O,"Beta-2-glycoprotein 1, domain V (APOH, Homo sapiens, UniProt P02749, V266L)",isothermal titration calorimetry,,"concentration not given, 298 K, with: 50 mM NaCl",,binding stoichiometry,0.93 ± 0.01
C[C@H](CCC(C)(C)O)[C@H]1CC[C@H]2[C@@H]3CC=C4C[C@@](C)(O)CC[C@]4(C)[C@H]3CC[C@]12C,"Glutamate NMDA receptor; GRIN1/GRIN2B (GRIN1/GRIN2B, Homo sapiens, UniProt Q05586+Q13224, F654A)","positive allosteric modulator, two-electrode voltage clamp",Xenopus oocytes expressing GluN1-F654A,"10 µM, 0.02% cremophor, with: 100 µM glutamate and glycine",reference: without compound,current response,158 ± 6.5%
Nc1ccc(C(=O)O)cc1,"BEST1, with wild-type BEST1 (Homo sapiens, UniProt O76090, A243T)",whole-cell patch clamp,HEK293 co-expressing WT and A243T mutant,"concentration not given, membrane potential 60 mV",,current density,23.3 pA/pF and 18.4 pA/pF and 18.7 pA/pF and 15.5 pA/pF and 4.87 pA/pF and 5.81 pA/pF and 19.1 pA/pF
O=C(OCc1ccccc1)c1ccccc1O,Nicotiana benthamiana,"enzyme activity, substrate, UPLC-UV/MS",,"10 min, pH 7, 25 °C",,Km,50.8 ± 1.96 µM
CC(C)[C@H](NC(=O)[C@H](Cc1ccc(O)cc1)NC(=O)[C@H](Cc1ccc(O)cc1)NC(=O)[C@@H]1CCCN1C(=O)[C@H](CCC(=O)O)NC(=O)[C@H](CCC(=O)O)NC(=O)[C@H](Cc1c[nH]c2ccccc12)NC(=O)[C@@H]1CCCN1C(=O)[C@@H](NC(=O)[C@H](CCC(N)=O)NC(=O)c1ccc2c(c1)C(=O)OC21c2ccc(O)cc2Oc2cc(O)ccc21)C(C)C)C(=O)N[C@H](C(=O)N[C@@H](CCCCN)C(=O)N[C@@H](CCCCN)C(=O)N[C@@H](CO)C(=O)N[C@@H](CO)C(=O)NCC(=O)NCC(N)=O)C(C)C,,,"human, plasma","intravenous infusion, 400 mg, 0.5 h after infusion start",,plasma concentration,27.7 µg/mL and 19.5 µg/mL
CC[C@H](C)[C@@H]1NC(=O)[C@H](Cc2ccc(O)cc2)NC(=O)[C@H](CC(C)C)NC(=O)[C@@H]2CCCN2C(=O)[C@@H](NC(=O)[C@H](CCCNC(=N)N)NC(=O)[C@H](CCCNC(=N)N)NC(C)=O)CSSC[C@@H](C(=O)N[C@@H](CCCNC(=N)N)C(=O)N[C@@H](CCCNC(=N)N)C(N)=O)NC(=O)[C@H](C(C)C)NC(=O)[C@@H]2CCCN2C(=O)[C@H](CC(=O)O)NC(=O)[C@H](Cc2cc(F)c(F)c(F)c2)NC(=O)[C@H](CO)NC1=O,"GTPase KRas, GDP-bound (KRAS, Homo sapiens, UniProt P01116, G12D)",affinity selection mass spectrometry,,"mixture library 2, with: protein titration up to 5 µM",lower is stronger binding,lowest bound protein concentration,0.08 µM
C[C@H](N)C(=O)Nc1ccc2ccccc2c1,"Puromycin-sensitive aminopeptidase (Rattus norvegicus, UniProt F1M9V7)",substrate,,MW 100 kDa,,kcat,27.2 s⁻¹
C[C@H](CS)C(=O)N1CCC[C@H]1C(=O)O,,,"male Hartley guinea pig, anaesthetized","intravenous infusion, 3 mg/kg, 10 min infusion, post-infusion",,QTc interval,349 ± 0.4 ms
NC(=O)c1cnc2[nH]ccc2c1N[C@@H]1[C@@H]2CC3C[C@H]1C[C@@](O)(C3)C2,,"regulatory T cells, flow cytometry","Japanese humans, peripheral blood",60 mg single dose,reference: baseline,percent change,-0.38%
Cc1cc(-c2ccnc3[nH]cc(F)c23)cc(F)c1[C@@]1(O)[C@H](C)CN(C(=O)CN)C[C@@H]1C,"Tyrosine-protein kinase JAK1 (JAK1, Homo sapiens, UniProt P23458)","ATP/ADP probe binding, KiNativ",HEK293T lysate,"10 µM, activation loop domain 1",,probe labelling inhibition,78.7%
Cc1cc(Nc2ccc(S(F)(F)(F)(F)F)cc2)n2nc(C(C)(F)F)nc2n1,Plasmodium vivax,,human Plasmodium vivax malaria patients,"oral, 800 mg",,patients with cardiac adverse events,0%
OC[C@H]1OC(O)[C@H](O)[C@@H](O)[C@@H]1O (some centres unmarked),"Hexokinase-3 (HK3, Homo sapiens, UniProt P52790, N221A)",substrate inhibition,,"mutant N221A, partial substrate inhibition model, with: ATP 20 mM",,V∞/Vmax ratio (b),0.4 ± 0.01
CCCCC(C)=O,uncharacterized protein,"binding, competitor, fluorescence displacement",,"20 µM, pH 7.4, with: 1-NPN 20 µM",reference: 1-NPN alone,relative fluorescence,78.9%
O=c1cc(CO)occ1[O-].[Cl-].[W+4].c1cc[cH-]c1.c1cc[cH-]c1,ALB,"binding, fluorescence quenching",,303 K,,Gibbs free energy change,-24.4 kJ/mol
N[C@H](CNC(=O)c1cc(Br)c(-c2ccccc2Br)s1)C(=O)O,"Glutamate receptor ionotropic, NMDA 1, with GluN2D (Grin1, Rattus norvegicus, UniProt P35439)",,,with: glutamate 300 µM,,Hill slope,1.43
CCCCCCCOC(C)=O,uncharacterized protein,"binding, competitor, fluorescence displacement",,"20 µM, pH 7.4, with: 1-NPN 20 µM",reference: 1-NPN alone,relative fluorescence,59.1%
Nc1nc2c(ncn2[C@@H]2O[C@H](COP(=O)(O)OP(=O)(O)O)[C@@H](OP(=O)(O)OP(=O)(O)O)[C@H]2O)c(=O)[nH]1,"rpoZ/rpoC (Escherichia coli, UniProt P0A800+P0A8T7)",capture compound SILAC-MS,,concentration not given,reference: heavy over light,log2 fold change,0.55
N#Cc1ccc2c(c1)[C@H]1CCCN(C(=O)c3ccc4[nH]cnc4c3)[C@H]1C2,,refers to: androstenedione,"human female, Phase II trial","oral, 20 mg once daily, last treatment, HPA axis, mean",,plasma level,4.08 nmol/L
O=C(O)CNC(=O)Cc1ccccc1,,,"ventricular cardiomyocytes, C57BL/6 mouse","dose not given, 0.112 s",,sarcomere length,1.72 µm
C=CC[C@H]1c2ccc(OC)c(OC)c2CN2CCc3cc4c(cc3[C@@H]12)OCO4,"P2X purinoceptor 7 (P2RX7, Homo sapiens, UniProt Q99572)","ATP-evoked current, inhibitor, whole-cell patch clamp",HEK293 transfected,3 µM,,remaining activity,89.5%
Nc1ncnc2c1ncn2[C@@H]1O[C@H](CO[P@](=O)(O)O[P@](=O)(O)O[P@@](=O)(O)S)[C@@H](O)[C@H]1O,"GUK1 (Homo sapiens, UniProt Q16774)",ITC,,molar ratio 0.9041,,ΔH,-4.63 kJ/mol
COc1cc(Nc2ncc3c(n2)-c2ccc(Cl)cc2C(c2c(F)cccc2OC)=NC3)ccc1C(=O)O,CAMK2B,kinase activity,,1 µM,,remaining activity,96%
Cn1cc(-c2ccc(-c3cncc(Cl)c3N3CCC4(CCNC4=O)CC3)cc2)cn1,COLO 205,"gene expression, microarray, refers to: UCHL1 mRNA",,"concentration not given, 2 h",reference: untreated cells,log2 fold change,1.68
CC(C)n1ncc2c(C(=O)NCC3(C)CNC3)cc(C3CC3)nc21,enterovirus A71,,Tainan/4643/1998,3 µM,,plaque area,0%
Nc1ncnc2c1ncn2[C@@H]1O[C@H](COP(=O)(O)CP(=O)(O)OP(=O)(O)O)[C@@H](O)[C@H]1O,"P2X purinoceptor 1 (P2RX1, Homo sapiens, UniProt P51575, K136A)",calcium influx,,10 nM,reference: ionomycin response,calcium influx,4.38% and 0% and 4.29%
N[C@H](CNC(=O)c1ccc(-c2cccc(F)c2F)s1)C(=O)O,"Glutamate receptor ionotropic, NMDA 1, with GluN2A (Grin1, Rattus norvegicus, UniProt P35439)",,,with: glutamate 300 µM,,Hill slope,1.48
Cc1ccsc1/C=C/c1nc(N)nc(-c2ccccc2O)n1,"Adenosine receptor A2a (ADORA2A, Homo sapiens, UniProt P29274)",radioligand displacement,,with: [3H]ZM241385,,ligand efficiency,0.52
CC(NC(=O)CCCc1ccc2ccc3cccc4ccc1c2c34)C(=O)NO (centres unmarked),"Histone deacetylase 8 (HDAC8, Homo sapiens, UniProt Q9BY41)",ITC,phosphate buffer,"concentration not given, pH 7.5",,binding stoichiometry,0.89
Oc1ccccc1-c1n[nH]cc1-c1ccnc2ccccc12,"Carbon catabolite-derepressing protein kinase (SNF1, Candida albicans, UniProt P52497)","kinase binding, MIB/MS competition",Candida albicans lysate,10 µM,"reference: DMSO, negative = stronger binding",log2 fold change,0.01
CC[C@@H]1[C@H](F)C(=O)N[C@@H]1COc1nccc2cc(C(N)=O)c(OC)cc12,"SNF-related serine/threonine-protein kinase (SNRK, Homo sapiens, UniProt Q9NRH2)","ATP-site probe binding, ActivX profiling",THP-1 cell lysate,"0.2 mM, Lys1 site",,inhibition,8.5%
COc1cccc2c(Nc3ccc4[nH]c(C(=O)N/N=C/c5ccc(SC)cc5)cc4c3)cc(C)nc12,"Retinoic acid receptor RXR-alpha (RXRA, Homo sapiens, UniProt P19793)","reporter gene, Gal4 hybrid reporter",,3 µM,reference: vehicle,activation,0.98 fold
O=c1cc(-c2ccc([N+](=O)[O-])cc2)[nH]c2c(-c3ccc(Cl)cc3)c(Cc3ccccc3)nn12,"WD40 repeat-containing protein SMU1 (Homo sapiens, UniProt Q2TAY7)","thermal stability, binder, thermal proteome profiling","RD, cell lysate","50 µM, 0.5% DMSO",reference: DMSO vehicle,melting temperature shift,6.6 °C
CCOC(=O)C1=CCCC[C@H]1S(=O)(=O)Nc1ccc(F)cc1Cl,"Toll-like receptor 4 (TLR4, Homo sapiens, UniProt O00206)","antagonist, ELISA",,"1 µg/mL, with: LPS","reference: DMSO control, lower means stronger antagonism",OD450 in LPS binding ELISA,0.464 a.u. and 0.43 a.u. and 0.453 a.u. and 0.441 a.u.
NCCS(=O)(=O)O,"Sodium- and chloride-dependent taurine transporter (SLC6A6, Homo sapiens, UniProt P31641, S402A)","binding, microscale thermophoresis",,"125 µM, room temperature, with: 50 nM labelled protein",higher = more binding,normalised MST signal,0.0341
COc1cc(-c2[o+]c3cc(O)cc(O)c3cc2O[C@@H]2O[C@H](CO)[C@@H](O)[C@H](O)[C@H]2O)cc(O)c1O,ALB,"binding, fluorescence quenching",,20 °C,,Gibbs free energy,-25.4 kJ/mol
CCN1CCC[C@H]1CNC(=O)c1c(O)c(Cl)cc(Cl)c1OC,"G-protein coupled receptor 26 (GPR26, Homo sapiens, UniProt Q8NDV2)","β-arrestin recruitment, TANGO luminescence, refers to: GPR26",,concentration not given,reference: basal luminescence,log2 fold change,0.103
CCOc1ccc(NC(=O)O[C@H](Cn2nc(C(C)C)cc2C(C)C)C(C)C)cc1,"Neuronal acetylcholine receptor; alpha4/beta2 (Homo sapiens, UniProt P17787+P43681)",two-electrode voltage clamp,Xenopus oocytes,"3 µM, low-sensitivity stoichiometry, with: ACh 10 µM",reference: ACh alone,ACh-evoked current,104 ± 6%
COc1c(N2C[C@@H]3CCCN[C@@H]3C2)c(F)cc2c(=O)c(C(=O)O)cn(C3CC3)c12,,,"male Hartley guinea pig, anaesthetized","intravenous infusion, 10 mg/kg, 10 min infusion, post-infusion",,QTc interval,358 ± 1.3 ms
O=c1nc(SCc2cc(F)cc(C(F)(F)F)c2)nc(SCc2ccc3nc(Cl)ccc3c2)[nH]1,"DNA topoisomerase 2-alpha (TOP2A, Homo sapiens, UniProt P11388)",DNA relaxation,,"62.5 µM, replicate 1",,relaxed DNA,0%
CNCC(=O)NC(Cc1cccc(OC)c1I)C(=O)OC (centres unmarked),"Kappa-type opioid receptor (OPRK1, Homo sapiens, UniProt P41145)",binding,,concentration not given,,activity,inactive

# Repeated from above:
SMILES,target or system,test,system,setting,scale,measurement,result
CCN1CCC[C@H]1CNC(=O)c1c(O)c(Cl)cc(Cl)c1OC,"G-protein coupled receptor 26 (GPR26, Homo sapiens, UniProt Q8NDV2)","β-arrestin recruitment, TANGO luminescence, refers to: GPR26",,concentration not given,reference: basal luminescence,log2 fold change,0.103
CCOc1ccc(NC(=O)O[C@H](Cn2nc(C(C)C)cc2C(C)C)C(C)C)cc1,"Neuronal acetylcholine receptor; alpha4/beta2 (Homo sapiens, UniProt P17787+P43681)",two-electrode voltage clamp,Xenopus oocytes,"3 µM, low-sensitivity stoichiometry, with: ACh 10 µM",reference: ACh alone,ACh-evoked current,104 ± 6%
COc1c(N2C[C@@H]3CCCN[C@@H]3C2)c(F)cc2c(=O)c(C(=O)O)cn(C3CC3)c12,,,"male Hartley guinea pig, anaesthetized","intravenous infusion, 10 mg/kg, 10 min infusion, post-infusion",,QTc interval,358 ± 1.3 ms
